# Results gathered from unrelated publications.
# A part holds a random share of what one study measured. Changes are numbered by the printed parent chain.

# Study 1
# Target: Interferon regulatory factor 7, full length, phosphomimetic (IRF7, Homo sapiens, UniProt Q92985, residues 1-503, S101K/S471D/S472D/S475D/S476D/S477D/S483D/S484D/S487D)
# Chain of UniProt Q92985 (whole entry, unmodified, looked up): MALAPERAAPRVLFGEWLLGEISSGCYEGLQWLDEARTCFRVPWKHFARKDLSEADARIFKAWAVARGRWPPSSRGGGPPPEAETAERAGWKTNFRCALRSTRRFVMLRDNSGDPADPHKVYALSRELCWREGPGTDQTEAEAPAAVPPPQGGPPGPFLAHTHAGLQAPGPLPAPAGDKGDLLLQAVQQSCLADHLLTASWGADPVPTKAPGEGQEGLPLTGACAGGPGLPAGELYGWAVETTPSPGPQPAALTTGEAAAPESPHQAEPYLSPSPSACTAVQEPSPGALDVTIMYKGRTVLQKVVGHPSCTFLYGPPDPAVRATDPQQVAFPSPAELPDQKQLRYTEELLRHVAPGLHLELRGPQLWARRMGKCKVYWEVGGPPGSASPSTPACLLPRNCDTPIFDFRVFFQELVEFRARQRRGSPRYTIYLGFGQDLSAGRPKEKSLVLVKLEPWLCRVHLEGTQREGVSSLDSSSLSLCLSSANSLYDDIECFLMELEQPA
# Technique: protein-binding microarray
# Form: double-stranded DNA, one strand shown
# Sample: in vitro
# Concentration: 250 nM
# Setting: 60-bp whole probe
# Added: salmon DNA 0.4 mg/ml
# Reference: random background probes
# Reading: higher = stronger binding
# Shared flanks, not repeated: GCCTAGCAC … GTCTTGATTCGCTTGACGCTGCTG
Strand,log fluorescence [z-score]
TCCATTTCTGTTTTTGCTTTGTGCTAG,2.12
GACGGTCACCTTCTCCTGACGTGCTAG,-0.393
TTAGGTATCCTATTGCTTTAGTGCTAG,0.703
TTAGGTTTCCTTTCTCTTTAGTGCTAG,5.95
TTAGGTTTCCTTCTCCTTTCGTGCTAG,2.85
TCATTTATGTCCTGTCTAACTGTGCTA,0.99

# Study 2
# Target: Centromere-binding protein 1, full length, His-tagged (CBF1, Saccharomyces cerevisiae, UniProt P17106, residues 1-351)
# Chain of UniProt P17106 (whole entry, looked up): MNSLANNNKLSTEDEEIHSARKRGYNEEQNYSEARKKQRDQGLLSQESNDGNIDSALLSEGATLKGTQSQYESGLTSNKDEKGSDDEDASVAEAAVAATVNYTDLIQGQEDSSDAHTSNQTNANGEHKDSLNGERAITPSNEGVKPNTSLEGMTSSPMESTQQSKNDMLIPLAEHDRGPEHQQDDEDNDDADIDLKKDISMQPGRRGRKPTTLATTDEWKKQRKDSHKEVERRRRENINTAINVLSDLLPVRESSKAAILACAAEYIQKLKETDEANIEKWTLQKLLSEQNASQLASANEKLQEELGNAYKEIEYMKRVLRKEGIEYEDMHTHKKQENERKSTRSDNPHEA
# Technique: competition protein-binding microarray
# Form: double-stranded DNA, one strand shown
# Sample: in vitro
# Concentration: 2 µM
# Setting: whole 60-bp probe, lowest competitor level
# Added: Pho4 competitor, 0.05 µM
# Reading: higher = stronger binding
# Shared flanks, not repeated: … GTCTTGATTCGCTTGACGCTGCTG
Strand,fluorescence intensity [a.u.]
CAGTTGCTGACGAGTCACGTTGATGAGCAAGAATAC,663
GTCTTGTCTCATTGCCGAGTGGGTGTCCCCACTTCA,71
CCGAAAAGCAACTGGCACGTTTTGAGCTCGGTGTTT,95
AAAAAAAAAAAAAGGTATGTGCGGGAAGAGAATCTA,166
CTTCTGTAAATTTGTCACATGACTTGACGCGCCCCG,2640

# Study 3
# Target: CCND1, cyclin fold, Cln2 fusion (human)
# Technique: yeast growth competition, sequencing
# Sample: yeast
# Setting: weak parent motif
# Reference: not given
# Reading: higher = stronger binding
# Starting sequence: GMNC docking peptide (human); KNAKRNLSSEFAN
Variant,normalised enrichment score
KMAKRNLSSEFAN [N2M],0.34
KNYKRNLSSEFAN [A3Y],0.148
KLAKRNLSSEFAN [N2L],0.217
KNAKRNLSSEFVN [A12V],0.153
KNAKRNLSTEFAN [S9T],0.859

# Single results of other studies
Substance,target,assay,test system,setting,how to read,measurement,value
"PhoQ, residues 284 288 289 292 302 303 SCKMEA","PhoP, residues 12 14 15 18 19 LYHSL (Escherichia coli, UniProt P23836)","Sort-seq, refers to: YFP reporter",E. coli,"PhoQ-PhoP variant library, added: 10 µM Mg2+","reference: high Mg2+ state, higher = stronger signaling",fold induction,15.4

# A few entries again (study 2):
Strand,fluorescence intensity [a.u.]
CCGAAAAGCAACTGGCACGTTTTGAGCTCGGTGTTT,95
CAGTTGCTGACGAGTCACGTTGATGAGCAAGAATAC,663
